Published values collected from several papers.
Every numbered part comes from another study and shows a few of its results, in no order. Substitutions count along the parent as printed.

Sample 1
Target: CCND3, cyclin fold, Cln2 fusion (human)
Technique: yeast growth competition, sequencing
Medium: yeast
Setting: weak parent motif
Baseline: not given
Reading: higher = stronger binding
Endpoint: normalised enrichment score
Starting sequence: ORC1 docking peptide (human); PRARKRLELGNLG; partner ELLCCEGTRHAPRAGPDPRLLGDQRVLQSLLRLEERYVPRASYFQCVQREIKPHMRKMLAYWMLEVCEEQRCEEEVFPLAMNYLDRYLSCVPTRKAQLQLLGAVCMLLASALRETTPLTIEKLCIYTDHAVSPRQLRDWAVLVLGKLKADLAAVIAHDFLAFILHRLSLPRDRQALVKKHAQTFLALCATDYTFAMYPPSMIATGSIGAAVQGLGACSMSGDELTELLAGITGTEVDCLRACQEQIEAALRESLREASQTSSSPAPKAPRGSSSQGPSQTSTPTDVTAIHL
G13Y: 0.138
A3H: 0.165
L12G: 0.0733
L7I: 0.13
R6L: 0.244
P1D: 0.159
G10V: 0.0655
G10P: 0.0824
E8F: 0.146
L9Q: 0.155
A3R: 0.191
P1S: 0.032
G10S: 0.0273
L12R: 0.06
G10A: 0.102
R2I: 0.129
L9W: 0.0754
L7V: 0.0162
P1I: 0.078

Sample 2
Target: RNA binding protein fox-1 homolog 2, RRM domain, GST-SBP tag (RBFOX2, Homo sapiens, UniProt O43251-10, residues 100-194)
Technique: RNA Bind-n-Seq
Form: RNA
Medium: in vitro
Tested at: 365 nM
Setting: natural RNA segment, single round, ends assumed
Baseline: no-protein control
Reading: higher = stronger binding
Endpoint: RBNS enrichment (R)
Shared flanks, not repeated: GGGAGUUCUACAGUCCGACGAUC … UGGAAUUCUCGGGUGCCAA
Residues (chain): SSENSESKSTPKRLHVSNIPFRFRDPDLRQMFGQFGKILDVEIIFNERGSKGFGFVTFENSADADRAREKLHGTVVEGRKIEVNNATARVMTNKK
AUUAAGAUGUUUUCACCACAUUGUAUUACAGAGACAGCCAAUAAAUCUACUAUUUGAUUUCAAUAUGUUUUGGAGGCUUAUUAUUGUUCCAGUGUGAAGGAUGAGGAGAG: 0.282
CAACGAAAACCUGUGCUUGUGUGUGUGUGGCGGCGGGGAGGGAGGAUCCUGUUUCCCACCUCCUUCUCCUCCCCUGUACUCCCCAGUGCCUUCCUUGUUCUGGUGGAGCU: 0.511
CGGAAGUGGUUUCAGGCCCUCUAGUUGCCAUGACCAAUUUGUGUGUGUGUUUAAUUUUUGCUUCAAGCUCUGUAGCAGGACCUGCCCCACGCACACCCCUACCCCUCUGU: 0.279
AUGCUACAGAAUGAAAGUUUGUAAUUGAAAGAAAAAGAAUGUAUUCAUCUGCUUCUUGGGUUUAAGCACACACCUGAAGGGGAGAUAUUGGGGGACACGGUGGCCACUCG: 6.01
UUGGCAAUACCCUGUGGAUCUGAAACAGCUAAAAAAAUGAAUUUGAAUUGCGCCAGAUAGGUCAAUACCAAGCUUCUGAUUCCUCCUCACAUAUGAAAAGUGAAAGUUGU: 0.504
CAUGUUUCCCAAAGCUCAGGUUCAUCUCCACUAUUGACAGAGUCGGGUAGUGGGAGAGUAUAAGUGACUUGAGACAGAGUGUCCUUGCUCAGAAAACUGUGAAGCAGGGG: 0.277
GCUGCUGCUAGGCCUUUAUUCCCAGGGUUUGGCUGCAUUGGCAGUGAGGCAGGUGGCUGGGGGUGACACCAGGUGACAAGGGGACUCAGUGGCAGGGGGUCACACCAGGC: 1.08
UAAGAUAUUUGUAUAUAACUUGGGCUUUGUAGCUUUUAUUUAUUCAGACUCAUAUGGCAUGUUAAUUAAUGACUUACGAUGGUGUCCUACUCUGGGCAGCUGUAUAGGAU: 1.06

Sample 3
Target: Fragile X messenger ribonucleoprotein 1, C-terminal low-complexity region (Fmr1, Mus musculus, UniProt P35922)
Technique: RNA Bind-n-Seq
Form: RNA
Medium: in vitro
Tested at: 200 nM
Setting: whole 134-nt RNA, ends assumed
Together with: 150 mM KCl
Baseline: input library
Reading: higher = stronger binding
Endpoint: log2 enrichment
Shared flanks, not repeated: GGGAGUUCUACAGUCCGACGAUC … UGGAAUUCUCGGGUGUCAAGG
UUGCGCCUGUCCCGGGUGAAGUGUGUCGGCCUCUCCGCACGCACCACGGAGACCAGCAGUGCAGUCAUGUGCCUGGACCUUGCAGCUUCC: -0.00234
AGUCCUGUGCUACACAUCGUAUGUACCGAAUCGGGUUUUUGGGAAAAAAAGGGUGGGAAAGUAUUAUGUUACGCCGUUCGGAUCUGCACU: 0.679
CUCAAGUCCUGUGCUACACAUCGUAUGUACCGAAUCGGUUGGGUUGGGUUGGGAAAGUAUUAUGUUACGCCGUUCGGAUCUGCACUUCCA: 1.16
AGUCCUGUGCUACACAUCGUAUGUACCGAAUCGGGAAAAAAAGGGUUUUUGGGAGGGAAAGUAUUAUGUUACGCCGUUCGGAUCUGCACU: 0.414
AGUCCUGUGCUACACAUCGUAUGUACCGAAUCGGUUUUGGGUUUUGGGGUUUUGGGGAAAGUAUUAUGUUACGCCGUUCGGAUCUGCACU: -0.0768
UCAAGUCCUGUGCUACACAUCGUAUGUACCGAAUCGGGAAAGGAAAGGGAAAGGGAAAGUAUUAUGUUACGCCGUUCGGAUCUGCACUUC: -0.35
AGUCCUGUGCUACACAUCGUAUGUACCGAAUCGGGCCCCCGGCCCCCGGGCCCCCGGGAAAGUAUUAUGUUACGCCGUUCGGAUCUGCAC: -0.819
UCAAGUCCUGUGCUACACAUCGUAUGUACCGAAUCGGGGCCCGGCCCGGGCCCGGAAAGUAUUAUGUUACGCCGUUCGGAUCUGCACUUC: -1.33
GCAGGAAGUAAAAACAAGUGGAAAUGCUUCGGAUAGUGGCAGGGGUGGGGGUUGCUAAGGAAAGGGUGGGAUGGGAGUGGGUAAAGAGUU: 0.508

Sample 4
Target: RING finger protein unkempt homolog, zinc fingers 1-6, GST-SBP tag (UNK, Homo sapiens, UniProt Q9C0B0, residues 30-357)
Chain of UniProt Q9C0B0 (30-357, looked up): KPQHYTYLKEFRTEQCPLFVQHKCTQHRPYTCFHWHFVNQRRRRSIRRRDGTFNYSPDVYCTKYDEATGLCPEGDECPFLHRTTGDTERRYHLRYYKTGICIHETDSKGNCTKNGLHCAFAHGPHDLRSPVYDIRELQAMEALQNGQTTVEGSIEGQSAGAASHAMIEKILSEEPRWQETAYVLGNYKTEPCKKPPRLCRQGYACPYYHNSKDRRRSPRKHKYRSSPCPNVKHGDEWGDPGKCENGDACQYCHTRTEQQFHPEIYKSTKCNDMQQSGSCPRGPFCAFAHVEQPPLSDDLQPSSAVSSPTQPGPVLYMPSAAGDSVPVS
Technique: RNA Bind-n-Seq
Form: RNA
Medium: in vitro
Tested at: not given
Setting: RNA with constant flanks, human-mouse chimeric sites, ends assumed
Baseline: input RNA pool
Reading: higher = stronger binding
Endpoint: bound/input enrichment
Shared flanks, not repeated: GGGAGUUCUACAGUCCGACGAUC … CAACAGAGGAUUGAGCAUCA
CUGAGGAUACCACUGAAGAGACCUUAAAAGAAUCAUUUGAGGGCUCUGUUCGUGCAAGAAUAGUCACCUGACCGGGAACUGGUUCUUCCAAAGGGUUUGGUUUUGUAGACUUUAAUAGUG: 0.776 ratio
GCUCUUGGGAAUGUAAUCAGCGCCUUGGGAGACAAGAGCAAGAGAGCCACCCAUGUCCCUUACAGAGACUCUAAGCUAACAAGACUAUUGCAGGAUUCCCUUGGGGGUAACAGCCAAACC: 0.173 ratio
AAAGAGUGGAUAGAAUGUGCACACGGGAUCGGUGGGACCCGGGCGAAGAAAGAGUGCAAGAUAGAGUUCGAUGACUUCGAAGAGUGCUUGCUUCGGUACAAAACGAUGAGGCGAAUGCAU: 0.275 ratio
UACUACUAUGAUGGUGAUAUUGGCAAUUAUUAUUAUGGACAGGGUCAUCCCAUGAAGCCUCAUAGAAUCCGGAUGACUCAUAACUUGCUGUUAAAUUAUGGUUUAUACCGAAAAAUGGAA: 0.347 ratio
AGAAUCUUGGGACUGUUUUACUUAAUUGGUCAUUGGUAUCUCAACAAACAUGGAGAUAAGAUUAGAAAUCUUGACAUCAACAGGUAUUAAGCAGAAAAAACCAUGGCCACGUGUCUCCUG: 0.117 ratio
CAACCUCAGAGCCCAGACUUCCUGGAUAUUACCAACCCUAAAGCGGUAUUAGAAAAUGCAUUGAGAAACUUCGCCUGUCUGACGACUGGAGAUGUGAUUGCUAUCAACUAUAAUGAAAAG: 0.416 ratio
CUGGCCUGGCCCUCCCCAGGGGCCUCCUUUCGUAUAGUCACUGCUUCUGCUACGGAUAUUUUUAGCUGCAACUCCCUACUGGGUGGGGCACCCAUUUCAGGCAGAAGGUUUUGGUACCCU: 0.347 ratio
CCCUCCCCGGGCCACCCACCCCUCCCGGCUCCCCGCCGAGAUCCAGGUUUCUUCUGUUUUCAUAGCCAAUAAGAAAAAUGUUCUACGCACAUUUUGUCCUCAGUAAACGAGGGCCUCUGG: 1.2 ratio

Excerpt of the above (sample 2):
GCUGCUGCUAGGCCUUUAUUCCCAGGGUUUGGCUGCAUUGGCAGUGAGGCAGGUGGCUGGGGGUGACACCAGGUGACAAGGGGACUCAGUGGCAGGGGGUCACACCAGGC: 1.08
UUGGCAAUACCCUGUGGAUCUGAAACAGCUAAAAAAAUGAAUUUGAAUUGCGCCAGAUAGGUCAAUACCAAGCUUCUGAUUCCUCCUCACAUAUGAAAAGUGAAAGUUGU: 0.504
CAACGAAAACCUGUGCUUGUGUGUGUGUGGCGGCGGGGAGGGAGGAUCCUGUUUCCCACCUCCUUCUCCUCCCCUGUACUCCCCAGUGCCUUCCUUGUUCUGGUGGAGCU: 0.511
AUGCUACAGAAUGAAAGUUUGUAAUUGAAAGAAAAAGAAUGUAUUCAUCUGCUUCUUGGGUUUAAGCACACACCUGAAGGGGAGAUAUUGGGGGACACGGUGGCCACUCG: 6.01
CAUGUUUCCCAAAGCUCAGGUUCAUCUCCACUAUUGACAGAGUCGGGUAGUGGGAGAGUAUAAGUGACUUGAGACAGAGUGUCCUUGCUCAGAAAACUGUGAAGCAGGGG: 0.277
CGGAAGUGGUUUCAGGCCCUCUAGUUGCCAUGACCAAUUUGUGUGUGUGUUUAAUUUUUGCUUCAAGCUCUGUAGCAGGACCUGCCCCACGCACACCCCUACCCCUCUGU: 0.279
